Measured values gathered from unrelated publications.
Compare with care: the assays were run in different laboratories. Numbers after ± are the reported error.
Chain of UniProt P08684 (whole entry, looked up): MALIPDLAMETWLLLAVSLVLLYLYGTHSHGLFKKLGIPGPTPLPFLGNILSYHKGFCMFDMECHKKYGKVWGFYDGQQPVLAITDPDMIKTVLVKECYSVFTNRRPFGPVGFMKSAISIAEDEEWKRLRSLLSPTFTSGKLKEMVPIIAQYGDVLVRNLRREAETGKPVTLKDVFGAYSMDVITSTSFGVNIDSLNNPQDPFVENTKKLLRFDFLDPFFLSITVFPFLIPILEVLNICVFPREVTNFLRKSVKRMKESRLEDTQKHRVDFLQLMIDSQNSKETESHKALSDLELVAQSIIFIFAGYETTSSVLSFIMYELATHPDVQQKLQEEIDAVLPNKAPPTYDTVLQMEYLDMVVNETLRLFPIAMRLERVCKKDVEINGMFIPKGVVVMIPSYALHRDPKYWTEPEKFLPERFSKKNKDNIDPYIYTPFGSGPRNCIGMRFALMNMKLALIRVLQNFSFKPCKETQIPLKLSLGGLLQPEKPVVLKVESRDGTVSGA

SMILES | tested on | assay | system | setting | scale | measurement | result
Cc1cc(Nc2ccc(S(F)(F)(F)(F)F)cc2)n2nc(C(C)(F)F)nc2n1 | Plasmodium falciparum |  | P. falciparum malaria patients | oral, 400 mg |  | patients with cardiac disorders | 15.4%
COc1cc2c(c(O)c1OC)C(=O)c1c(cc(C)c(O[C@@H]3O[C@H](CO)[C@@H](O)[C@H](O)[C@H]3O)c1OC)C2=O | HepaRG co-cultured with HK-2 | MTT |  | 133.33 µM, 48 h | baseline: untreated control | cell viability | 52.2 ± 10.9%
CC1(F)CN(C(=O)Cn2c(=O)c(C(=O)NCc3ccc(Cl)cc3)cc3nccnc32)C1 | human cytomegalovirus |  | MRC-5, AD169-GFP |  | baseline: CC50 over EC50 | selectivity ratio | > 10.6
CC[C@H]1[C@@H](O)[C@@H]2[C@H](CC[C@]3(C)[C@@H]([C@H](C)CCNC(=O)NS(=O)(=O)c4ccc(C(C)(C)C)cc4)CC[C@@H]23)[C@@]2(C)CC[C@@H](O)C[C@@H]12 | Cytochrome P450 3A4 (CYP3A4, Homo sapiens, UniProt P08684) |  | human, plasma | 10 mg, day 1, compound alone |  | Vd/F geometric mean | 431 L
CN(C)C(=O)CCc1nc(-c2ccccc2)c(-c2ccccc2)o1 | COS-7 | WST-8 |  | 50 µM, 24 h, 0.1% DMSO, unit not given | baseline: vehicle control | metabolic activity | 0.96 ± 0.02
Cc1cc(O)c2c(c1)C(=O)c1cc(O)cc(O)c1C2=O | HepaRG co-cultured with HK-2 | MTT |  | 66.67 µM, 24 h | baseline: untreated control | cell viability | 50.1 ± 12.7%
CN(C)C(=O)CN1CCN(c2cnc3c(cc(C(=O)NCc4ccc(Cl)cc4)c(=O)n3CC(=O)N3CC(C)(F)C3)n2)C1=O | human cytomegalovirus |  | MRC-5, AD169-GFP |  | baseline: CC50 over EC50 | selectivity ratio | > 48.1
CCCCCCCCC(=O)c1cc(O)c(O)c(O)c1 | COS-7 | WST-8 |  | 30 µM, 24 h, 0.1% DMSO, unit not given | baseline: vehicle control | metabolic activity | 0.96 ± 0.03
CCc1cc(C(=O)NC)c2nccc(N3CCc4c(cc(Cn5ccnc5)cc4-c4cn(C)nc4C(F)(F)F)C3=O)c2c1 |  |  | Sprague Dawley rat, male, plasma | intravenous, 3 mg/kg |  | AUC extrapolated fraction | 0.3%
CC[C@H](CO)N(CCN(N=O)[C@H](CC)CO)N=O | Salmonella typhimurium | plate incorporation | TA1535, water | 1500 µg/plate, without S9 |  | revertant colonies per plate | 29.3 ± 5
COc1ccccc1S(=O)(=O)Nc1ccc2c(c1)CN(C)C(=O)N2 | OCI-Ly1 |  |  | 0.5 µM, 120 h |  | viability | 78.6%
COc1c(O)cc2c(c1O)C(=O)c1c(cc(C)c(O)c1OC)C2=O | HepaRG co-cultured with HK-2 | MTT |  | 33.33 µM, 48 h | baseline: untreated control | cell viability | 103 ± 13.4%
CN1CC[C@H](c2c(O)cc(O)c3c(=O)cc(-c4ccccc4Cl)oc23)[C@H](O)C1 | COS-7 |  |  | 100 µM, 24 h, 0.1% DMSO, unit not given | baseline: control | necrosis | 0.44 ± 0.17
O=C1c2cccc(O)c2C(=O)c2c(O)cc(CO)cc21 | HepaRG co-cultured with HK-2 | MTT |  | 33.33 µM, 24 h | baseline: untreated control | cell viability | 92.6 ± 9.17%
CCC(=O)NS(=O)(=O)c1ccc(-c2c(-c3ccccc3)noc2C)cc1 | COS-7 |  |  | 50 µM, 24 h, 0.1% DMSO, unit not given | baseline: vehicle control | necrotic cells | 0.6 ± 0.12
O=C(CCCCCCC(=O)Nc1ccc(I)cc1)NO | OCI-Ly1 |  |  | 0.5 µM, 120 h |  | viability | 27.5%
CCN(CC)Cc1cc(Nc2ccnc3cc(Cl)ccc23)ccc1O | COS-7 |  |  | 100 µM, 24 h, 0.1% DMSO, unit not given | baseline: control | apoptosis | 16.4 ± 7.36
COc1c(O)c(C)cc2c1C(=O)c1c(O)cccc1C2=O | HepaRG co-cultured with HK-2 | MTT |  | 16.67 µM, 48 h | baseline: untreated control | cell viability | 55.4 ± 9.07%

Excerpt of the above:
SMILES | tested on | assay | system | setting | scale | measurement | result
COc1cc2c(c(O)c1OC)C(=O)c1c(cc(C)c(O[C@@H]3O[C@H](CO)[C@@H](O)[C@H](O)[C@H]3O)c1OC)C2=O | HepaRG co-cultured with HK-2 | MTT |  | 133.33 µM, 48 h | baseline: untreated control | cell viability | 52.2 ± 10.9%
CN(C)C(=O)CCc1nc(-c2ccccc2)c(-c2ccccc2)o1 | COS-7 | WST-8 |  | 50 µM, 24 h, 0.1% DMSO, unit not given | baseline: vehicle control | metabolic activity | 0.96 ± 0.02
CC1(F)CN(C(=O)Cn2c(=O)c(C(=O)NCc3ccc(Cl)cc3)cc3nccnc32)C1 | human cytomegalovirus |  | MRC-5, AD169-GFP |  | baseline: CC50 over EC50 | selectivity ratio | > 10.6
